Experimental data collected from several papers.
Every numbered part comes from another study and shows a few of its results, in no order.

Set 1 — effect on: enzyme activity; tested at: 20 µM
Target: Replicase polyprotein 1ab, nsp12 with nsp7/nsp8 (rep, Severe acute respiratory syndrome coronavirus 2, UniProt P0DTD1)
`CC(C)NCC(O)COc1cccc2[nH]ccc12` (centres unmarked) gave an inhibition of 19.5%.
`CCCC[C@@H](C=O)NC(=O)[C@H](CC(C)C)NC(=O)OCc1ccccc1` has an inhibition of -2.11%.
For `C[C@H]1C[C@H]2[C@@H]3CCC4=CC(=O)C=C[C@]4(C)[C@@]3(F)[C@@H](O)C[C@]2(C)[C@@]1(O)C(=O)CO`, the inhibition was -1.78%.
For `Cc1cc(C(C#N)c2ccc(Cl)cc2)c(Cl)cc1NC(=O)c1cc(I)cc(I)c1O` (centres unmarked), the inhibition was 56.1%.
The inhibition of `O=C(O)c1ccccc1Nc1ccc(CCc2ccc(Cl)c(Cl)c2)cc1` is reported as 64.9%.
For `Nc1ccncc1`, the inhibition was 34.3%.
The inhibition of `COc1cc(CNC(=O)CCCC/C=C/C(C)C)ccc1O` is reported as 16.3%.
`Nc1ncnc2c1ncn2[C@@H]1O[C@H](COP(=O)(O)OP(=O)(O)OP(=O)(O)O)[C@@H](O)[C@H]1O` has an inhibition of -6.47%.
With `N#C/C(=C\c1ccc(O)c(O)c1)C(=O)OCCc1cccs1` the inhibition was 104%.
For `CCN(CCO)CCCC(C)Nc1ccnc2cc(Cl)ccc12` (centres unmarked), the inhibition was 1.79%.
For `Cc1nnc(C(=O)NC(C)(C)c2nc(C(=O)NCc3ccc(F)cc3)c(O)c(=O)n2C)o1`, the inhibition was -3.11%.

Set 2 — method: RNA Bind-n-Seq; molecule type: RNA; sample: in vitro; tested at: 200 nM; setting: whole 134-nt RNA, ends assumed; together with: 150 mM LiCl; baseline: input library; reading: higher = stronger binding; all molecules: 7-deaza-guanosine replaces G
Target: Ras GTPase-activating protein-binding protein 1, full length (G3BP1, Homo sapiens, UniProt Q13283)
UniProt Q13283, sequence (whole entry, looked up): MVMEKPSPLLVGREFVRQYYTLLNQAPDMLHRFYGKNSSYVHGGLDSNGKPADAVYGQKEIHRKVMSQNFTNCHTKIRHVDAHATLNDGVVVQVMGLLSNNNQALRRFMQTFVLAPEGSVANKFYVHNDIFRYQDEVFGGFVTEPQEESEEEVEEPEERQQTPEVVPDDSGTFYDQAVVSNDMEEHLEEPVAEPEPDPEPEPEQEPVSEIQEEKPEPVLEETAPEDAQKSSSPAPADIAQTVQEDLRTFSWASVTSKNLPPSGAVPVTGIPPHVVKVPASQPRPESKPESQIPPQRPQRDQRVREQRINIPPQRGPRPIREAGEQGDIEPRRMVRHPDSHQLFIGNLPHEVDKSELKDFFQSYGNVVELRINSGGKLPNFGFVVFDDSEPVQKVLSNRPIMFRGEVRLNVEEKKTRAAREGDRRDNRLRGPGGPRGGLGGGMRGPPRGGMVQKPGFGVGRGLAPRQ
For `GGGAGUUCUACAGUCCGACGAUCCACAGACAACACGCACCCACACAGACACAGAGGGAAGGGGUUGGGAUGGGGACAGGGUGCACAGCAGGGCGGGGCAGGACCCCAGCCCCUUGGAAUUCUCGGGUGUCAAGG`, the log2 enrichment was 1.28.
`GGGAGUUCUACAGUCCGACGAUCCCUGUGCUACACAUCGUAUGUACCGAAUCGGGGUUUUUUUGGGGUUUUUGGGGUUUGGGGAAAGUAUUAUGUUACGCCGUUCGGAUCUGCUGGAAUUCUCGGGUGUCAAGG` has a log2 enrichment of 0.236.
`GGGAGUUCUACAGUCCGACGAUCUUGCAUUUCGAACGCGUUCUAAGAUGCCCCUGAAAGAUGUUCCCCUGGGCCAAUUAGAGGCAGAGCUCCAAGCUCCAGACAUCACUCCAGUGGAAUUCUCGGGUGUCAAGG` gave a log2 enrichment of 0.596.
The log2 enrichment of `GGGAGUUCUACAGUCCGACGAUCUGGCAGGAAAGAGUUCCUAGAGAGAGAAGACAAAGACAGUCUGUGUUGCAAAAGAAGCCCAAGGCUGAAGAUUUAAGAACUGAAUGUGCAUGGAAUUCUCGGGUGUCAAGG` is reported as -1.82.
The log2 enrichment of `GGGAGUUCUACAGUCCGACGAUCACCAUGCAGGUGGGCAUCUUUGGGAAGUGGGGCAAGGGGGGGAUAGGGAGGGGGGUAACACUUUGGGAACAGGUGUUCCCAGGUCGUUUCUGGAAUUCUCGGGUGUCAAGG` is reported as 0.51.
The log2 enrichment of `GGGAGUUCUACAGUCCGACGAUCAAGUCCUGUGCUACACAUCGUAUGUACCGAAUCGGGGCCCGGGGCCCGGCCCGGGGAAAGUAUUAUGUUACGCCGUUCGGAUCUGCACUUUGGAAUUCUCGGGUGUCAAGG` is reported as -0.571.
`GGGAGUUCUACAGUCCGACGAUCAGUCCUGUGCUACACAUCGUAUGUACCGAAUCAAAUUUUUUUAAAUUUAAACCCAAAAAAGUAUUAUGUUACGCCGUUCGGAUCUGCACUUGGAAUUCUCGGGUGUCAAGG` has a log2 enrichment of -0.452.
`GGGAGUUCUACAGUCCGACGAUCUGGCCCUGGUGGCAUGCGGGGAGGAAGAGAUGGCCUCAUGGAUCGUGGUGGUCCCGGUGGAAUGUUCAGAGGUGGCCGUGGUGGAGACAGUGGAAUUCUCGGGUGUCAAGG` has a log2 enrichment of 0.0125.

Set 3 — cell line: HEK-293T/ACE2; tested at: concentration not given; time: 16 (unit not given); baseline: vehicle
For `Nc1nc(NC2CC2)c2ncn([C@H]3C=C[C@@H](CO)C3)c2n1`, the viability was 100%.
With `Cc1cn([C@@H]2C[C@@H](O)[C@H](CO)O2)c(=O)[nH]c1=O` the viability was 107%.
`COc1cc2nc(N3CCN(C(=O)C4COc5ccccc5O4)CC3)nc(N)c2cc1OC` (centres unmarked) has a viability of 93.7%.

Set 4 — effect on: enzyme activity; mode: inhibitor; tested at: 20 µM; setting: primary screen
Target: Replicase polyprotein 1ab, main protease (rep, Severe acute respiratory syndrome coronavirus 2, UniProt P0DTD1)
With `Cc1cc(-c2ccc(/C=C3/SC(Nc4ccc(Cl)c(C(=O)O)c4)=NC3=O)o2)c([N+](=O)[O-])cc1C` the inhibition was 48.2%.
For `COc1ccc2[nH]c([S+]([O-])Cc3ncc(C)c(OC)c3C)nc2n1` (centres unmarked), the inhibition was 69.1%.
With `COc1ccc2[nH]c([S@@+]([O-])Cc3ncc(C)c(OC)c3C)nc2c1` the inhibition was 99.1%.
For `CN1CC[C@@]2(C)c3cc(O)ccc3N(C)[C@@H]12`, the inhibition was 91.5%.

Some of these lines once more (set 1):
For `Nc1ccncc1`, the inhibition was 34.3%.
The inhibition of `COc1cc(CNC(=O)CCCC/C=C/C(C)C)ccc1O` is reported as 16.3%.
